Values quoted from earlier work as cited in several papers.
Lines come from different studies, so protocols differ. Numbers after ± are the reported error.
Ar: Androgen receptor (Ar, Rattus norvegicus, UniProt P15207)
Sequence of UniProt P15207 (whole entry, looked up): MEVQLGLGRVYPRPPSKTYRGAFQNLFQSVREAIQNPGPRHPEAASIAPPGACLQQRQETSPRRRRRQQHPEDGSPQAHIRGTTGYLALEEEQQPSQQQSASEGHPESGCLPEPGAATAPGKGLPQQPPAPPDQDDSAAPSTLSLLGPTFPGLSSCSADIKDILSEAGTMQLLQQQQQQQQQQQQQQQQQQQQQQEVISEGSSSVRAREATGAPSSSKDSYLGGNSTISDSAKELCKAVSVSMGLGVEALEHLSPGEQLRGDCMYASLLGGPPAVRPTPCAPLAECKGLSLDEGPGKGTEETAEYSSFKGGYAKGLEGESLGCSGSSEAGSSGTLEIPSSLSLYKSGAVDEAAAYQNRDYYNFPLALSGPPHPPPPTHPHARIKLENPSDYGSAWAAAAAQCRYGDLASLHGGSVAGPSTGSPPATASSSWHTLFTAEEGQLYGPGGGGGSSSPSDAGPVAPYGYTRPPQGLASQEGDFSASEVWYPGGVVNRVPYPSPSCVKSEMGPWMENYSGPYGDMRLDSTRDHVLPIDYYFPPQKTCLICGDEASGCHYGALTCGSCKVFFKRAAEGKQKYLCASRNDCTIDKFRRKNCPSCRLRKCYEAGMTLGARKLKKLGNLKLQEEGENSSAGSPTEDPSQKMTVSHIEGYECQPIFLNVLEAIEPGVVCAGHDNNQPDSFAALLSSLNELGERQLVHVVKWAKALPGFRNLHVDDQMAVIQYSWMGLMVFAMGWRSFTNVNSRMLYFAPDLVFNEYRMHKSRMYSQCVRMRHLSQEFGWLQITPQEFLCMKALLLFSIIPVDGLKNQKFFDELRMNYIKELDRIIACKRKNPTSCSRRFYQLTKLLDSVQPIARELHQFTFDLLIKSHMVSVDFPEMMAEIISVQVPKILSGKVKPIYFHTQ
Sequence of UniProt P11229 (whole entry, looked up): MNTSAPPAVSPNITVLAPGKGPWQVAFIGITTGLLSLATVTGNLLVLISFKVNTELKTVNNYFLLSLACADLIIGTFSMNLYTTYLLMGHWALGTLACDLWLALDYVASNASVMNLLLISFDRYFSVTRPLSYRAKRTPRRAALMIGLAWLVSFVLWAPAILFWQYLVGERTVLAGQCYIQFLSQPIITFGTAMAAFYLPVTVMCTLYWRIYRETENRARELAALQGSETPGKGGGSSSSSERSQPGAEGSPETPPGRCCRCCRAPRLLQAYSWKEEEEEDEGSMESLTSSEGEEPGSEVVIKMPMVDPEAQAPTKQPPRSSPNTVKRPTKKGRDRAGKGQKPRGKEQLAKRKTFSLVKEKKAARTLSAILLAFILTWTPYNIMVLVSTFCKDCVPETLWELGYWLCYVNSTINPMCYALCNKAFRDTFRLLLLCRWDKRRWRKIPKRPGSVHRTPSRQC
Sequence of UniProt Q9UBS5 (whole entry, looked up): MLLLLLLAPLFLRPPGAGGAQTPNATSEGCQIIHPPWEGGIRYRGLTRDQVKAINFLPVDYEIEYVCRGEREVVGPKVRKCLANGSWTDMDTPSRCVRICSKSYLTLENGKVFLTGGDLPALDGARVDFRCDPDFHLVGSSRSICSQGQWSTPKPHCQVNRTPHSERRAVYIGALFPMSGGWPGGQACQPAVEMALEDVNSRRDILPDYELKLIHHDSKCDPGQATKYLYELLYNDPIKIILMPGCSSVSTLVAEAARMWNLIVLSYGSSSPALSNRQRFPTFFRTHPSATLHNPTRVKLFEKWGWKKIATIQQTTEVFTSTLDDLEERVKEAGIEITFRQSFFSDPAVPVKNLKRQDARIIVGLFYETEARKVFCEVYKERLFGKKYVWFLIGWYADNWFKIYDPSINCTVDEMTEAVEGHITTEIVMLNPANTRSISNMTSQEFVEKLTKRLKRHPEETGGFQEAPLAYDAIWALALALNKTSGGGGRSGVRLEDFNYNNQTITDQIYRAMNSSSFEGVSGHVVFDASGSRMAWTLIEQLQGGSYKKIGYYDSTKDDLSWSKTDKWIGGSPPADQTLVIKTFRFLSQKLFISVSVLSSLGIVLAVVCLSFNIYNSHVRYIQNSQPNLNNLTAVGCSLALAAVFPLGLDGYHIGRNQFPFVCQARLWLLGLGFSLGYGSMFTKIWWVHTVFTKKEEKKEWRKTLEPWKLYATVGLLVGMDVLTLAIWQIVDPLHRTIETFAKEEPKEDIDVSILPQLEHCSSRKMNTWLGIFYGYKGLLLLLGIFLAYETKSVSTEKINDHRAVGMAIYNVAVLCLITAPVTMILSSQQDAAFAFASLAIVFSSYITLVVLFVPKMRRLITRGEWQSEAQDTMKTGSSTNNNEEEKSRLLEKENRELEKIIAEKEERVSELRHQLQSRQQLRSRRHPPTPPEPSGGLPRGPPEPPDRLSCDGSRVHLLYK
Sequence of UniProt P33535 (whole entry, looked up): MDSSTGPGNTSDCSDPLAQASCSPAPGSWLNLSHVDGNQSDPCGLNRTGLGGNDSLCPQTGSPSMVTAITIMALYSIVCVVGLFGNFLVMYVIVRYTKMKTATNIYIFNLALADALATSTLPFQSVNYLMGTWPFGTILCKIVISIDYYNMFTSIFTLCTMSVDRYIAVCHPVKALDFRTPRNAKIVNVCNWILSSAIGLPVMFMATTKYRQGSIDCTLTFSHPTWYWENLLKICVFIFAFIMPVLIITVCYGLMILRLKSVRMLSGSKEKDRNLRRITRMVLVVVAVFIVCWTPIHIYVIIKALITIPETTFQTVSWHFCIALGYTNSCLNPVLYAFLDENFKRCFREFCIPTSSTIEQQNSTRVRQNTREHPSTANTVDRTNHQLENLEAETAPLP
Sequence of UniProt P48039 (whole entry, looked up): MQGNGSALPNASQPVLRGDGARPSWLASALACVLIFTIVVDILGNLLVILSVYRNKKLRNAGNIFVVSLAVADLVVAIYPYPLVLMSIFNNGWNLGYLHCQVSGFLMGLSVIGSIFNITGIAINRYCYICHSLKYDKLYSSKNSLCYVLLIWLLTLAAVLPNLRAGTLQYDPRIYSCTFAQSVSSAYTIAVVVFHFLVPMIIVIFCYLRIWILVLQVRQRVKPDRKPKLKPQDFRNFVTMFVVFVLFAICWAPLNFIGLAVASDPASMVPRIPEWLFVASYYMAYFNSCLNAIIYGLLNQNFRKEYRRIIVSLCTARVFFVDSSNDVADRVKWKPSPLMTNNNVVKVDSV
Sequence of UniProt P0DMS8 (whole entry, looked up): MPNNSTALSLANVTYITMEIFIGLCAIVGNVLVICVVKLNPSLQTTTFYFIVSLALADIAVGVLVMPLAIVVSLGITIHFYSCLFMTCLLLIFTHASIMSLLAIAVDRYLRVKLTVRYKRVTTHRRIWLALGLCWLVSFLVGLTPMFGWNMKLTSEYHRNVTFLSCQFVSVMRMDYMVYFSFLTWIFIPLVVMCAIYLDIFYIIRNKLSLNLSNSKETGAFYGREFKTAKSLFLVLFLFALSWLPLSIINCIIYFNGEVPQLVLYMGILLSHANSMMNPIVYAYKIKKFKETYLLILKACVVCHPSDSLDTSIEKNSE
Sequence of UniProt P04789 (whole entry, looked up): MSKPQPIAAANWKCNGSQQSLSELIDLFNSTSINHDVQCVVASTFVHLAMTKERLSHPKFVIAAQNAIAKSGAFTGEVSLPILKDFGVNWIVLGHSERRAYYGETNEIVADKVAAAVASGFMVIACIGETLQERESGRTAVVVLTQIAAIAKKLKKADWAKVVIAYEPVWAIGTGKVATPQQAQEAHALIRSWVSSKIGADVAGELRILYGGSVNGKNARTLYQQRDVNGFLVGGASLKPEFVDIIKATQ
Sequence of UniProt P42336 (whole entry, unmodified, looked up): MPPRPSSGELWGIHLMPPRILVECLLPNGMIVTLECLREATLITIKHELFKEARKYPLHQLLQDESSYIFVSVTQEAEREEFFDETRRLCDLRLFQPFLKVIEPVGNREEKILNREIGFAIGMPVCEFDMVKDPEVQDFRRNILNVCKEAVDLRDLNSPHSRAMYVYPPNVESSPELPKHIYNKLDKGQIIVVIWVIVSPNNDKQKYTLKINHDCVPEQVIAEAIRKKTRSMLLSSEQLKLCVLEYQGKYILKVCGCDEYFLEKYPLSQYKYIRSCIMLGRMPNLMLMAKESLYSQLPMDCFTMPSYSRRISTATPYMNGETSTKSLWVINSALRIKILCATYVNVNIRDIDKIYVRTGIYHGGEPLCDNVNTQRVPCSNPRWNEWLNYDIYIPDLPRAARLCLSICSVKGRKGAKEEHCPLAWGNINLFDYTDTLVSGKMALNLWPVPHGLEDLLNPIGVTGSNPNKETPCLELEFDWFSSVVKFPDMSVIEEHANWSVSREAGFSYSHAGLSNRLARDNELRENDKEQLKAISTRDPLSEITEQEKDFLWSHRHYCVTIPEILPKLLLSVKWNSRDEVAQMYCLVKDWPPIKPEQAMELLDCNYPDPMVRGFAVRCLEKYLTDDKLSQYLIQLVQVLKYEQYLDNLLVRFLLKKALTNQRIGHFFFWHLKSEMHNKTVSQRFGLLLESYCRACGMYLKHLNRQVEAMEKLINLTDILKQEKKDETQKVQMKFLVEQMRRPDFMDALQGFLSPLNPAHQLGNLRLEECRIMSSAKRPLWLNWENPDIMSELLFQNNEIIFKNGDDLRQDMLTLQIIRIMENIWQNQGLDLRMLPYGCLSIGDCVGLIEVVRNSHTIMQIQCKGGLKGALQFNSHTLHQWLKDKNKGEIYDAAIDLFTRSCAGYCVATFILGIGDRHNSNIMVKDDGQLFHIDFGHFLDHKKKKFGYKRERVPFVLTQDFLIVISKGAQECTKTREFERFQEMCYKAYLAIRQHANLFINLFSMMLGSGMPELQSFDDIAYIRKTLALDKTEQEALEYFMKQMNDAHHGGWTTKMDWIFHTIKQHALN
Sequence of UniProt C7C422 (whole entry, looked up): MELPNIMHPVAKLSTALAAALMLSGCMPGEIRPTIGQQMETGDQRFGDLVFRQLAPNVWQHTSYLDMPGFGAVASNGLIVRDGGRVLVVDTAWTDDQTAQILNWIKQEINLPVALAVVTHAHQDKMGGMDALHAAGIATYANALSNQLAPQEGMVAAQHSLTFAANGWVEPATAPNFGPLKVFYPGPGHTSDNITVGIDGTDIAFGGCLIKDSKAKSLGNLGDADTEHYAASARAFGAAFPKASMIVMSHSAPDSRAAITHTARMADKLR

| SMILES | tested on | test | test system | conditions | quantity | value |
| --- | --- | --- | --- | --- | --- | --- |
| Cc1cc(O)cc(C)c1C[C@H](N)C(=O)N[C@@H]1CCNc2ccc(Cc3ccc4ccccc4c3)cc21 | Oprm1 (Rattus norvegicus, UniProt P33535) | agonist | – | concentration not given | stimulation | 96 ± 3% |
| C[C@H]1CCCC(=O)CCC/C=C/c2cc(O)cc(O)c2C(=O)O1 | Ar | validation reference set | – | concentration not given | AR binding call | inactive |
| CC(C)[C@@H](CN1CC[C@@](C)(c2cccc(O)c2)[C@@H](C)C1)NC(=O)[C@@]1(C)Cc2ccc(O)cc2CN1 | delta opioid receptor (human) | antagonist | – | added: DPDPE | Ke | 854 ± 210 nM |
| Nc1ncc(-c2nc(N3CCOCC3)nc(N3CCOCC3)n2)c(C(F)F)n1 | PIK3CA (Homo sapiens, UniProt P42336, E542K) | KinomeScan competition binding | – | 10 µM | remaining binding | 0% |
| O=c1cc(-c2ccccc2)oc2ccccc12 | Ar | – | – | concentration not given | activity class | inactive |
| CCCCCOc1ccc(-c2ccc(-c3ccc(C(=O)N[C@H]4C[C@@H](O)[C@@H](O)NC(=O)[C@@H]5[C@@H](O)[C@@H](C)CN5C(=O)[C@H]([C@@H](C)O)NC(=O)[C@H]([C@H](O)[C@@H](O)c5ccc(O)cc5)NC(=O)[C@@H]5C[C@@H](O)CN5C(=O)[C@H]([C@@H](C)O)NC4=O)cc3)cc2)cc1 | – | – | severe hepatic impairment patients | 50 mg single dose | clearance | 1.16 ± 0.34 L/h |
| COc1ccc2[nH]cc(CCNC(C)=O)c2c1 | MTNR1A (Homo sapiens, UniProt P48039) | – | – | – | Hill coefficient | 0.7 |
| O=C[C@H](O)COP(=O)(O)O | Triosephosphate isomerase, glycosomal (Trypanosoma brucei brucei, UniProt P04789) | substrate | – | pH 9.3 | Km | 340 µM |
| CNC(=O)[C@H]1O[C@@H](n2cnc3c(NCc4cccc(I)c4)ncnc32)[C@H](O)[C@@H]1O | ADORA3 (Homo sapiens, UniProt P0DMS8) | – | – | – | Hill coefficient | 0.8 |
| O=C(O)c1ccccc1C(c1ccc(O)cc1)c1ccc(O)cc1 | Ar | validation reference set | – | concentration not given | AR binding call | inactive |
| C[C@H](NC[C@H](O)CP(=O)(O)CC1CCCCC1)c1ccc(Cl)c(Cl)c1 | GABBR1 (Homo sapiens, UniProt Q9UBS5) | – | – | – | Hill coefficient | 1 |
| CC(C)(O/N=C(\C(=O)N[C@@H]1C(=O)N2C(C(=O)[O-])=C(C[N+]3(CCNC(=O)c4ccc(O)c(O)c4Cl)CCCC3)CS[C@H]12)c1csc(N)n1)C(=O)O | blaNDM-1 (Klebsiella pneumoniae, UniProt C7C422) | substrate | – | – | kcat | 11 s⁻¹ |
| C[N+]1(C)CCC(OC(=O)C(c2ccccc2)c2ccccc2)CC1.[I-] | CHRM1 (Homo sapiens, UniProt P11229) | – | – | – | Hill coefficient | 1 |
| CCCC1COC(Cn2cncn2)(c2ccc(Cl)cc2Cl)O1 (centres unmarked) | Ar | – | – | concentration not given | binding activity call | active |

A few entries again:
| SMILES | tested on | test | test system | conditions | quantity | value |
| --- | --- | --- | --- | --- | --- | --- |
| CNC(=O)[C@H]1O[C@@H](n2cnc3c(NCc4cccc(I)c4)ncnc32)[C@H](O)[C@@H]1O | ADORA3 (Homo sapiens, UniProt P0DMS8) | – | – | – | Hill coefficient | 0.8 |
| Cc1cc(O)cc(C)c1C[C@H](N)C(=O)N[C@@H]1CCNc2ccc(Cc3ccc4ccccc4c3)cc21 | Oprm1 (Rattus norvegicus, UniProt P33535) | agonist | – | concentration not given | stimulation | 96 ± 3% |
